Results from different studies.
Target: Serine/threonine-protein kinase TAO1 (TAOK1, Homo sapiens, UniProt Q7L7X3)

For `CN1CC[C@@H](COc2cnc(C#N)cc2-c2ccn3nc(NC(=O)C4CC4)cc3c2)C1`, the inhibition was 8% (enzyme activity, inhibitor; 1 µM).
`O=C(Nc1ccc(Oc2ncnc3[nH]cc(-c4ccccc4)c23)c(F)c1)c1c2n(n(-c3cc(F)ccc3F)c1=O)CCCC2` has an inhibition of 19% (enzyme activity, inhibitor; 0.5 µM).
The inhibition of `CN1CCN(Cc2ccc(-c3ccc(CO[C@H]4CCC[C@@H]4NC(=O)c4cc(-c5cnn(C)c5)cnc4N)cc3)cc2)CC1` is reported as 1% (enzyme activity, inhibitor; 0.1 µM).
`C=CC(=O)N1Cc2nc(-c3cc(-c4cc(Cl)cnc4Cl)c(F)cc3F)n(-c3ccncn3)c2C1` gave an inhibition of 0.7% (cell-free assay, inhibitor; 1 µM).
With `C=CC(=O)N1CCCC(n2c(=O)c3ncccc3n(Cc3ccc(Oc4ccccc4)cc3)c2=O)C1` (centres unmarked) the remaining binding was 95% (cell-free assay, competition with immobilised ligand; 1 µM).
`O=C=[N][Ru-4]123([n]4c5ccc(O)cc5c5c6c(c7cc(F)c[n+]1c7c54)C(=O)NC6=O)[S+]1CC[S+]2CC[S+]3CC1` (centres unmarked) gave a remaining activity of 105% (enzyme activity; 100 nM, human enzyme, added: 10 µM ATP; baseline: untreated).
`C[C@]1(O)CCCN(c2nc(Nc3ccc(S(=O)(=O)N[C@H]4CC[C@H](CN5CCN(c6ccc(C7CCC(=O)NC7=O)cc6F)CC5)CC4)cc3)ncc2C(F)(F)F)C1` (some centres unmarked) has a remaining binding of 30% (binding, competition with immobilised ligand; 1 µM).
For `COc1cc(Nc2nccc(-c3cnn4nc(OC)ccc34)n2)cc(C(F)(F)F)c1`, the remaining binding was 79% (binding, competition with immobilised ligand; 1 µM).
`Nc1ncc(-c2cc(-c3cnn(CC(F)(F)F)c3)ncc2F)nc1C(=O)NC1CNCC(F)C1` (centres unmarked) has a remaining activity of 92.6% (enzyme activity; 1 µM; baseline: DMSO control).
The inhibition of `NC(=O)[C@@H](O)C[C@H]1CCc2sc3ncnc(O[C@H]4CC[C@H](N5CCOCC5)CC4)c3c21` is reported as 2% (enzyme activity, inhibitor; 10 µM).
For `CNC(=O)C[C@H](Cc1ccc(C#N)cc1)NC(=O)c1cc(-c2ccc(CN[C@H](C)c3ccc(C)cc3)o2)ccc1Cl`, “activity vs control” read 100% (enzyme activity, inhibitor; 1 µM).
The inhibition of `COc1ccc(C(=O)/C=C/c2ccccc2-c2c[nH]c3ccc(C#N)cc23)c(O)c1` is reported as -12% (enzyme activity, inhibitor; 20 µM).
The remaining binding of `CNC(=O)C1CCN(c2cc(C)c(F)cc2NC(=O)c2ccc(-c3cc(O)ccc3C)c(C)c2)CC1` is reported as 95% (binding, competition with immobilised ligand; 1 µM).
With `COc1c(Cl)cccc1Nc1c(-c2ccncc2C#C[C@@]2(C)CCCN2C(=O)/C=C/CN(C)C)[nH]c2c1C(=O)NCC2` the remaining binding was 26% (binding, competition with immobilised ligand; 3 µM).
